Measured values gathered from unrelated publications.
Each numbered part is a random draw from the data of one study; scales do not carry over between parts.

Block 1
Target: RNA binding protein fox-1 homolog 2, RRM domain, GST-SBP tag (RBFOX2, Homo sapiens, UniProt O43251-10, residues 100-194)
Method: RNA Bind-n-Seq
Form: RNA
Sample: in vitro
Concentration: 365 nM
Notes: natural RNA segment, single round, ends assumed
Baseline: no-protein control
Reading: higher = stronger binding
Measurement: RBNS enrichment (R)
Shared flanks, not repeated: GGGAGUUCUACAGUCCGACGAUC … UGGAAUUCUCGGGUGCCAA
Construct (chain): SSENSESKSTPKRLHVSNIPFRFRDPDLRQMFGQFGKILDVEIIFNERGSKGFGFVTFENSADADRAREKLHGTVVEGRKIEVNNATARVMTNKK
ACACCUGAGUGCAUUUAAGUAUUUAGAGUAUAAGUUUCAUGCAUAGAAAGUUAACCCUAUUAAUUUCAGUAUCAAACAUUGUUACAGUCAAAGACAAGGAAGACCAAACC: 0.274
GAUCUUACAGACUGUAUCAGUCUAAUUUUUAAAUUUUAAGUUAUUUUGUACAGCUUUGUAAAUUCUUAACAUUUUUAUAUUGCCAUGUUUAUUUUGUUUGGGUAAUUUGG: 0.889
ACUAAAGACAAUAUAAAGAAAAAUAAUCUAAGAAGAUAAAGGGGCUUUCUGCUUAAAGAUAUGUAGAUAAUAUUCCUAAGUAUGCUGAAAUAAAAUACUGUUUCAAACUG: 0.586
AGCAGAAUUAGAAAGAGCAUUCCCCACUUGCAGUGUCCUUCUCACAGGGAAGUCAGACGGUGGAAGAUCUGCUGCAACCAUUAUCUCUGUUCUUUGUGUAUCAUGCAUUU: 0.948
GCAUUAGGAAGGUUGAGAACCACUUCUCUAGGGCUCAAUGUAUUAGAUAACUCACUAAGGGGUAAAAUAUGAAAUAUCAAAUCCUAAAAAGGAUAUUUAUAAUUAAAACA: 0.852
UUAAGGCUAGCCUAGAAGGGCCAAACAUGUCCUUAUUGACAAAGCUGGUCUUUGUCGCCUAAUUAGGGUAUCCUAGCUAUGUUCCAUUUCUAGUAAGGGGCUGUAGUUAG: 0.419
AAAACAUAUGCGCUGACAUUUUAUUACAAGCUGCAUGUCCUGACCUUCUUUGAAUUAAGUGGACUGUGGCAUGACAUUCUGCAAUAUUUUGCUGAAUUGAACACUAUUGU: 0.544

Block 2
Target: Histone acetyltransferase KAT6A, both winged helices, GST fusion (KAT6A, Homo sapiens, UniProt Q92794, residues 1-181)
Method: protein binding microarray
Form: double-stranded DNA, one strand shown
Sample: in vitro
Concentration: not given
Notes: 8-mer, flanks averaged, mean of 2 arrays, mostly near background
Baseline: not given
Reading: higher = stronger binding
Measurement: E-score
Residues (chain): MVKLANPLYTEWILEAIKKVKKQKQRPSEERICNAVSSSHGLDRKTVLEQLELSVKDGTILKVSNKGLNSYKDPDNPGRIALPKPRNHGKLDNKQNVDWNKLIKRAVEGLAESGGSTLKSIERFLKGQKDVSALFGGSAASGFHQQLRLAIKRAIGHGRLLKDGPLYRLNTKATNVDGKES
TATTCGGA: -0.0238
GATGGTGA: -0.232
GTCTAGAC: 0.0455
AGATCCTA: -0.199
ACGCTAGA: 0.0318
ATGCGATA: 0.0519
GCTGACCA: -0.128
ACTTATAT: -0.0758
ATATAACC: -0.0633
CACTTATC: -0.156
CCAAGCAA: -0.152

Block 3
Target: Interferon regulatory factor 7, full length, phosphomimetic (IRF7, Homo sapiens, UniProt Q92985, residues 1-503, S471D/S472D/S475D/S476D/S477D/S483D/S484D/S487D)
Method: protein-binding microarray
Form: double-stranded DNA, one strand shown
Sample: in vitro
Concentration: 2200 nM top
Notes: 60-bp whole probe
With: salmon DNA 0.4 mg/ml
Baseline: random background probes
Reading: higher = stronger binding
Measurement: fitted relative affinity
Shared flanks, not repeated: GCCTAGCAC … GTCTTGATTCGCTTGACGCTGCTG
Construct (chain): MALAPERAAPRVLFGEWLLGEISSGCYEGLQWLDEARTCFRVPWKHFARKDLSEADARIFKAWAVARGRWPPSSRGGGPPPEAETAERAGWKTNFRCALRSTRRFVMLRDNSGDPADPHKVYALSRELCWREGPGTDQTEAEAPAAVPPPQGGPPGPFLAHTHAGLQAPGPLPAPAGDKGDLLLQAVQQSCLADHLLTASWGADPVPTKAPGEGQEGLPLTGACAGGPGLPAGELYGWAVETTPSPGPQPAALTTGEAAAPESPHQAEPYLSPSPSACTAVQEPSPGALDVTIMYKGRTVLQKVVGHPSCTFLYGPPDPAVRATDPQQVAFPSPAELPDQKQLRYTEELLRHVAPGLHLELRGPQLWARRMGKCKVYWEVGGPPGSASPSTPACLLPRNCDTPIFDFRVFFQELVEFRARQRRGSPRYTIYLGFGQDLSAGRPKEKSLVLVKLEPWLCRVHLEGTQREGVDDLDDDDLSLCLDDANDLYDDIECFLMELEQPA
TTAGATTACGGGACTGGATTAGTGCTA: -0.262 z-score
TTAGAACTGGGGTATCGATGAGTGCTA: -0.286 z-score
TACGGTTTCCTTTCCCTGACGTGCTAG: 4.94 z-score
TTAGGTTGCGACACTGGGTTAGTGCTA: -0.262 z-score
TTAGGTATCGGTCTCGGCTAGTGCTAG: 0.472 z-score
GACGAACTGGCGTTTCGAGACGTGCTA: 0.351 z-score
TTAGGTAGCGGTATCGGTTAGTGCTAG: -0.169 z-score
GACGGACTGGACTTTCGGGACGTGCTA: 1.99 z-score
TGTGATCTCATATGAAAACAGTGCTAG: 0.515 z-score
TTAGATCTCAGACTAGATTAGTGCTAG: -0.308 z-score

Mixed results
PhoQ, residues 284 288 289 292 302 303 SLSVQF
fold induction (PhoP, residues 12 14 15 18 19 GHCSL (Escherichia coli, UniProt P23836); Sort-seq, measured: YFP reporter; E. coli; PhoQ-PhoP variant library, with: 10 µM Mg2+; baseline: high Mg2+ state, higher = stronger signaling): 14.6

Excerpt of the above (block 3):
TTAGGTTGCGACACTGGGTTAGTGCTA: -0.262 z-score
TTAGATTACGGGACTGGATTAGTGCTA: -0.262 z-score
TTAGATCTCAGACTAGATTAGTGCTAG: -0.308 z-score
TTAGGTATCGGTCTCGGCTAGTGCTAG: 0.472 z-score
GACGAACTGGCGTTTCGAGACGTGCTA: 0.351 z-score
